Measurements gathered from unrelated publications.
Parts stem from different laboratories: compare values within a part only. Values joined by “and” are separate records of one study, mostly repeats; a detail may differ.
UniProt P20794, sequence (whole entry, looked up): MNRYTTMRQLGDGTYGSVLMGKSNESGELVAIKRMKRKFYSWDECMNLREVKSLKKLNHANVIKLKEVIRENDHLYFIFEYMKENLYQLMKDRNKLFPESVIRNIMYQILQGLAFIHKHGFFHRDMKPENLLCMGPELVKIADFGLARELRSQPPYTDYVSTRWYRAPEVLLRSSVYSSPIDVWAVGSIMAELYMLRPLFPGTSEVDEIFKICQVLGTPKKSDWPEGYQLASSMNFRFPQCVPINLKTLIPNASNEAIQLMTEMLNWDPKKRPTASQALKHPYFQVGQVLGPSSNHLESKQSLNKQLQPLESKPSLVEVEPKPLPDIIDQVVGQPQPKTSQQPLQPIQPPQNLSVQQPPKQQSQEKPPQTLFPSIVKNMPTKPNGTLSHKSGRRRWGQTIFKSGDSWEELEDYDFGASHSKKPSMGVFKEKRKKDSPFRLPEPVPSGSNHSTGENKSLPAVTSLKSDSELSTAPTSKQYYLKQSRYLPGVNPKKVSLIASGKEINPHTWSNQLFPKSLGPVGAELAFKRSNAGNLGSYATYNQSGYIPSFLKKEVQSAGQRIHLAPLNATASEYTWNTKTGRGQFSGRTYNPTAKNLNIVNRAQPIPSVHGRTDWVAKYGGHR
UniProt O14920, sequence (whole entry, looked up): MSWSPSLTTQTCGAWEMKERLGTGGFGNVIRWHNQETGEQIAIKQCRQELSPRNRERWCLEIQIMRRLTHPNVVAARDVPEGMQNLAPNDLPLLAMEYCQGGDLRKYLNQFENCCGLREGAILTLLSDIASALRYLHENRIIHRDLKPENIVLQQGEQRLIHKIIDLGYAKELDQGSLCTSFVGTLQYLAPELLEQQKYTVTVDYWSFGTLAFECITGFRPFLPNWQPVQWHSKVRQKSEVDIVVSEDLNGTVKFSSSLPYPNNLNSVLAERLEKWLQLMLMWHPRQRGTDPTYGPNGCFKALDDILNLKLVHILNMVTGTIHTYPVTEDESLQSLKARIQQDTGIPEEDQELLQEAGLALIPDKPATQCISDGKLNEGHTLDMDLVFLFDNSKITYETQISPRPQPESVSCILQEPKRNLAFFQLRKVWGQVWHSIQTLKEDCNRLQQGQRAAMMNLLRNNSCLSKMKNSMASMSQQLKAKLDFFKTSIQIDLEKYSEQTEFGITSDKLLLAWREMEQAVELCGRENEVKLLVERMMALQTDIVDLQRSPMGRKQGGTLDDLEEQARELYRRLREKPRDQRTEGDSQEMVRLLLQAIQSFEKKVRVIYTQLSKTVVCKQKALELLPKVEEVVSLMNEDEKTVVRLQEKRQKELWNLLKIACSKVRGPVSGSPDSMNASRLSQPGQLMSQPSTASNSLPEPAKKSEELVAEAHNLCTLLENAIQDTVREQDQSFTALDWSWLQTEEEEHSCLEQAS
UniProt Q9UM73, sequence (whole entry, unmodified, looked up): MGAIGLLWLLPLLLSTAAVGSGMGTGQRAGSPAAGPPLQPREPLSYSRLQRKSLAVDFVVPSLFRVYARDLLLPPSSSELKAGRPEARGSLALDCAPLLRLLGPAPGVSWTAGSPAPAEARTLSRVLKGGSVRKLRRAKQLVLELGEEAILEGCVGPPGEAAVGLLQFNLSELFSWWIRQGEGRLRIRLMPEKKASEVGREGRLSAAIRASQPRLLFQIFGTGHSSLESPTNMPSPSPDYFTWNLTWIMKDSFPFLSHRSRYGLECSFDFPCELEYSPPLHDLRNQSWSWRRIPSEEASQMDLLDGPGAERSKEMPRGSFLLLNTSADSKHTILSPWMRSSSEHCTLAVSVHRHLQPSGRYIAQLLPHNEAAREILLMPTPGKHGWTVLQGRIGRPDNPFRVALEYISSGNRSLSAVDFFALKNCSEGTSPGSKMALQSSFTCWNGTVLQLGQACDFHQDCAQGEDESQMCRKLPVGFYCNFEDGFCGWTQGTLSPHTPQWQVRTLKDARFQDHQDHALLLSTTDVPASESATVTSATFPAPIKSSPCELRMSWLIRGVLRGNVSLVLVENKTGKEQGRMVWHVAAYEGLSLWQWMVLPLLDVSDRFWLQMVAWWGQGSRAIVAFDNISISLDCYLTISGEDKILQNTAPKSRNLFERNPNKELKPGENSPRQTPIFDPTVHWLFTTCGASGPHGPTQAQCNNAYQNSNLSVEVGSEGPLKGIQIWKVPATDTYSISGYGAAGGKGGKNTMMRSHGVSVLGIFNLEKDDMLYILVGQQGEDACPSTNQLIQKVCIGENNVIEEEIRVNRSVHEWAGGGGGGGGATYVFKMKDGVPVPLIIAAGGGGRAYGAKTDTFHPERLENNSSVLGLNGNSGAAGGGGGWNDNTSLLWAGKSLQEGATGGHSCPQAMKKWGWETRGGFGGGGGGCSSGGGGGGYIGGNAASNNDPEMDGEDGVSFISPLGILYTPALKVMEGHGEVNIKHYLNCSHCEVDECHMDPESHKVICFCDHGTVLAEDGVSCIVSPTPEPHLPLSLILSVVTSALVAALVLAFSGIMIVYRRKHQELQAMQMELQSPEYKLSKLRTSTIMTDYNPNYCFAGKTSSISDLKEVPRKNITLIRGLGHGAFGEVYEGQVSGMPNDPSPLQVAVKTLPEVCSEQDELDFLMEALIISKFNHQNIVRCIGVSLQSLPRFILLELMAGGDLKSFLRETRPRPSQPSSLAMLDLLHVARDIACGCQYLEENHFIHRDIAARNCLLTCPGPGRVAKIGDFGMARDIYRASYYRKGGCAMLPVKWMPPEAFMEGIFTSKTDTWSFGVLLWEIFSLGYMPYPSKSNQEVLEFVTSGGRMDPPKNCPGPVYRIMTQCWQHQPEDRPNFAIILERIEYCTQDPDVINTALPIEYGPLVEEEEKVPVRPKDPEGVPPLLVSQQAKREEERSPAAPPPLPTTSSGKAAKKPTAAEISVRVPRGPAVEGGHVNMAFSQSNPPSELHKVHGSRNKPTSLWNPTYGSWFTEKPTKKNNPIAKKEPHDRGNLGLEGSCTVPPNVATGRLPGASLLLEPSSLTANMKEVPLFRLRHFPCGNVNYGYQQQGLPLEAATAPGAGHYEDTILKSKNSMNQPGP
UniProt Q12852, sequence (whole entry, looked up): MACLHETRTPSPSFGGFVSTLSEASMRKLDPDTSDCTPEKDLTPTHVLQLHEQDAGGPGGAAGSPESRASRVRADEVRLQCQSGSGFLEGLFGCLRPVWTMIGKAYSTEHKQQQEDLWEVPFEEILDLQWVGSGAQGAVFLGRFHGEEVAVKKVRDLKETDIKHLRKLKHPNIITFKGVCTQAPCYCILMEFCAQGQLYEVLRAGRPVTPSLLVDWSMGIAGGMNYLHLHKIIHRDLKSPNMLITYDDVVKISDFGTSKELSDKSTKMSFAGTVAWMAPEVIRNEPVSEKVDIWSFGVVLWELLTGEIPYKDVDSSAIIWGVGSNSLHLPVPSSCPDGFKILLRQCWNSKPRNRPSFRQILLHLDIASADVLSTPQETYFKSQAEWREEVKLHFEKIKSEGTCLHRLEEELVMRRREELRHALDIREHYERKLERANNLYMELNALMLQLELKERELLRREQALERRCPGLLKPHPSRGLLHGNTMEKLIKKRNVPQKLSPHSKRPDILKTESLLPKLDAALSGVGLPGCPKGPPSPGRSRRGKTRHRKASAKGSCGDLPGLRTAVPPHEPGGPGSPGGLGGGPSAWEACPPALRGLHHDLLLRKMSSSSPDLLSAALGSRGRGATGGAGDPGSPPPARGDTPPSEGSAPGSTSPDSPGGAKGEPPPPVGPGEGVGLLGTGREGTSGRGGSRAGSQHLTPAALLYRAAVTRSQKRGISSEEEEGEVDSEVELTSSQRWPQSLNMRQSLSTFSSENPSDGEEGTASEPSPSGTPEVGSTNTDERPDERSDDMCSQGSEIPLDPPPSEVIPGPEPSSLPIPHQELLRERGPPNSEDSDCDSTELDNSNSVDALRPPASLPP

Sample 1
Host: human
Medium: microsomes or S9
Tested at: 2 µM
Time: 0.5 h
Quantity: remaining compound
SMILES = COc1c(F)ccc(-c2cn([C@@H](CC(C)C)C(N)=O)nn2)c1F; result = 38.8%
SMILES = CCCc1nc(N(C)Cc2cc(-c3ccccc3)n[nH]2)c2cnn(C)c2n1; result = 41.1%
SMILES = c1ccc(-c2nc(-c3csc(-c4ccccc4)n3)cs2)cc1; result = > 99%
SMILES = CCC(=O)CC(=O)Nc1cccc(Cl)c1Cl; result = 14%
SMILES = O=C1NC(=O)c2c1cc1ccccc1c2-c1ccccc1; result = 63.4%

Sample 2
Cell line: mouse MPNST tumor cells
Technique: high-content nuclear imaging
Item: cell number
Tested at: 10 µM
Time: 12 h
Setting: mean of 2 replicates
Relative to: plate mean
Reading: higher = more cells
Quantity: nuclei count
Compound = c1ccc(Oc2nc(NC3CCCCC3)c3[nH]cnc3n2)cc1; result = -1.3 z-score
Compound = CNc1cc(OC)c(C(=O)NC2CCN(Cc3ccccc3)C2C)cc1Cl (centres unmarked); result = 2.7 z-score
Compound = CC(=O)O[C@]1(C(C)=O)CC[C@H]2[C@@H]3C=C(C)C4=CC(=O)CC[C@]4(C)[C@H]3CC[C@@]21C; result = 5.23 z-score and 2.66 z-score
Compound = OC(CCCN1CCCCC1)(c1ccccc1)c1ccccc1; result = 4.46 z-score and 2.03 z-score

Sample 3
Target: Non-receptor tyrosine-protein kinase TYK2 (TYK2, Homo sapiens, UniProt P29597)
UniProt P29597, sequence (whole entry, looked up): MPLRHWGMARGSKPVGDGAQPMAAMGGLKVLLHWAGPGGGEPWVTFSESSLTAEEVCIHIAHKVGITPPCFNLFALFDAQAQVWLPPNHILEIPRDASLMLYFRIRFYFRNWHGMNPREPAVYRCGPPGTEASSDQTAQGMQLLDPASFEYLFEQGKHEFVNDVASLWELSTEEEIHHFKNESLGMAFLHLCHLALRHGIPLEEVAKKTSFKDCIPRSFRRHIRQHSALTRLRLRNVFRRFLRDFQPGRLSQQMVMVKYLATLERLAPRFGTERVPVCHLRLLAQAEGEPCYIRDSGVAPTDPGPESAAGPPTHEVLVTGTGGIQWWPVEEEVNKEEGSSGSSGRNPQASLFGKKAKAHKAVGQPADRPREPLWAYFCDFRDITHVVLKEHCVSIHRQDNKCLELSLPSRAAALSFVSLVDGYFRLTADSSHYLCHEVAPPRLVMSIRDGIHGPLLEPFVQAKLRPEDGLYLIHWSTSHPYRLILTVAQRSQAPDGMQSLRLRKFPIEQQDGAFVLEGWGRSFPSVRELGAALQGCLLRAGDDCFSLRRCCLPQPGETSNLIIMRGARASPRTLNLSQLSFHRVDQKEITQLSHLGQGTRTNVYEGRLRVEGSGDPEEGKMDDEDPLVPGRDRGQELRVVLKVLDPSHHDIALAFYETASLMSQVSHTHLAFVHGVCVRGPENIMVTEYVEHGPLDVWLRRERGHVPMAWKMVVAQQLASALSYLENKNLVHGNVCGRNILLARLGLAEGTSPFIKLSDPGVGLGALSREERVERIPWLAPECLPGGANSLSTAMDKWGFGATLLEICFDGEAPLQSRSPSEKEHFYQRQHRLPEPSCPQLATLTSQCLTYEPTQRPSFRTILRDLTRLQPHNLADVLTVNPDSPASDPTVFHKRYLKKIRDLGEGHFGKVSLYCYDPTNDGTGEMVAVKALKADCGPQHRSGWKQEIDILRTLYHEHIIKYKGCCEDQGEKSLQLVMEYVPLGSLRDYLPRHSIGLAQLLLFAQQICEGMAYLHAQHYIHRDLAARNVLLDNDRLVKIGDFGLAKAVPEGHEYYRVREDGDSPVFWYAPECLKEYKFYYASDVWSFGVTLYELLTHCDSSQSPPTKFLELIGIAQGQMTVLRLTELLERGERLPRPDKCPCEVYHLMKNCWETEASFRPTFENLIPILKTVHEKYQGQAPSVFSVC
Effect on: enzyme activity
Action: inhibitor
Tested at: 0.5 µM
Relative to: control
Quantity: remaining activity
Compound = O=c1c(-c2ccc(F)cc2)c(-c2ccncc2)[nH]n1-c1ccc(Cl)cc1; result = 90.9%
Compound = N#CC(c1ccnc(NCCc2cccnc2)n1)c1nc2ccccc2s1 (centres unmarked); result = 83.2%
Compound = CC(C)(C)c1nc2c3cc[nH]c(=O)c3c3cc(F)ccc3c2[nH]1; result = 1.48%
Compound = NC(=O)c1ccc(-c2nc(-c3ccc4c(c3)OCCO4)c(-c3ccccn3)[nH]2)cc1; result = 108%
Compound = FC(F)(F)c1ccc(/C=C/c2nc(COc3ccc(CCCCn4ccnn4)cc3)co2)cc1; result = 99.1%
Compound = O=C(c1ccccc1)c1ccc(N2CCOCC2)cc1O; result = 110%
Compound = COc1cc2c(Nc3ccc(Br)cc3F)ncnc2cc1OCC1CCN(C)CC1; result = 97.7%
Compound = N#C/C(=C(/N)SC1C=CC=CC1)c1cccc(C(O)c2ccncc2)c1 (centres unmarked); result = 105%
Compound = O=C1NC(=O)/C(=C/c2ccc3c(c2)OC(F)(F)O3)S1; result = 88.4%
Compound = CC(C)n1cnc2c(Nc3cccc(Cl)c3)nc(NCCO)nc21; result = 105%

Sample 4
SMILES: COc1cccc(CNC(=O)c2nc3scc(COCc4ccc(C(=O)O)cc4)c3c(=O)[nH]2)c1
Effect on: cell-free assay
Technique: competition with immobilised ligand
Tested at: 1 µM
Quantity: remaining binding
target = DCLK1 (Homo sapiens, UniProt O15075); result = 60.4%
target = FGR (Homo sapiens, UniProt P09769); result = 90%
target = MARK1 (Homo sapiens, UniProt Q9P0L2); result = 96.7%
target = MAP3K20 (Homo sapiens, UniProt Q9NYL2); result = 85.5%
target = ALK (Homo sapiens, UniProt Q9UM73, L1196M); result = 94.8%
target = CAMK2G (Homo sapiens, UniProt Q13555); result = 100%
target = PIK3CA (Homo sapiens, UniProt P42336, M1043I); result = 100%
target = HIPK4 (Homo sapiens, UniProt Q8NE63); result = 94.3%
target = RIOK1 (Homo sapiens, UniProt Q9BRS2); result = 52.1%
target = MAK (Homo sapiens, UniProt P20794); result = 100%
target = EPHA4 (Homo sapiens, UniProt P54764); result = 91.1%
target = IKBKB (Homo sapiens, UniProt O14920); result = 73.2%
target = MAP3K12 (Homo sapiens, UniProt Q12852); result = 58.2%
target = ACVRL1 (Homo sapiens, UniProt P37023); result = 100%
target = KIT (Homo sapiens, UniProt P10721, V559D); result = 99.1%
target = PLK4 (Homo sapiens, UniProt O00444); result = 83%
target = WNK1 (Homo sapiens, UniProt Q9H4A3); result = 76.7%
target = MAPK8 (Homo sapiens, UniProt P45983); result = 100%
target = CSNK1G3 (Homo sapiens, UniProt Q9Y6M4); result = 96.6%

Repeated from above (sample 4):
target = FGR (Homo sapiens, UniProt P09769); result = 90%
target = MARK1 (Homo sapiens, UniProt Q9P0L2); result = 96.7%
